# Published values pooled from the literature.
# Organism: Staphylococcus aureus
SMILES,test,test system,conditions,scale,measurement,value
C=Cc1cc(OC)c2c(c1)c(=O)oc1c2cc(OC)c2c(O)ccc([C@@H]3O[C@H](C)[C@H](O)[C@@](C)(O)[C@H]3O)c21,crystal violet,MRSA USA300,"8 × MIC, 24 h",,biofilm eradication,95%
CCOC(=O)c1cnc(N/N=C/c2c(-c3ccc(Cl)cc3)nc3ncccn23)s1,"microbial growth, well diffusion",ATCC23235,100 µg/mL,,inhibition zone,12 mm
CC[C@H](C)[C@H](NC(=O)[C@H](CCCCN)NC(=O)[C@H](CCCCN)NC(=O)[C@H](CC(C)C)NC(=O)[C@H](CCCCN)NC(=O)[C@H](CCC(=O)O)NC(=O)[C@H](CCCCN)NC(=O)[C@@H](NC(=O)[C@H](CCCCN)NC(=O)[C@H](CC(N)=O)NC(=O)[C@H](CCCNC(=N)N)NC(=O)[C@H](Cc1ccccc1)NC(=O)[C@H](CCCCN)NC(=O)[C@H](CCCNC(=N)N)NC(=O)[C@H](CC(C)C)NC(=O)[C@H](CCCNC(=N)N)NC(=O)[C@H](CCCCN)NC(=O)[C@H](CCCNC(=N)N)NC(=O)[C@H](CC(C)C)NC(=O)[C@@H](N)CC(C)C)[C@@H](C)CC)C(=O)NCC(=O)N[C@@H](CCC(N)=O)C(=O)N[C@@H](CCCCN)C(=O)N[C@H](C(=O)N[C@@H](CCC(N)=O)C(=O)NCC(=O)N[C@@H](Cc1ccccc1)C(=O)N[C@H](C(=O)N1CCC[C@H]1C(=O)N[C@@H](CCCCN)C(=O)N[C@@H](CC(C)C)C(=O)N[C@H](C(=O)N1CCC[C@H]1C(=O)N[C@@H](CCCNC(=N)N)C(=O)N[C@H](C(=O)N[C@@H](CCC(=O)O)C(=O)N[C@@H](CO)C(=O)O)[C@@H](C)O)C(C)C)C(C)C)[C@@H](C)CC,inhibition zone,penicillin-resistant P1383,,,lethal concentration,1.74 µM
CO.[Ag+].[S-]c1ncccn1.c1ccc(P(c2ccccc2)c2ccccc2)cc1.c1ccc(P(c2ccccc2)c2ccccc2)cc1,,MTCC 740,"50 mg/mL, 18 to 24 h",,inhibition zone diameter,inactive
CCCCCCCCCC(=O)N[C@@H](Cc1c[nH]c2ccccc12)C(=O)N[C@H](CC(N)=O)C(=O)N[C@@H](CC(=O)O)C(=O)N[C@@H]1C(=O)NCC(=O)N[C@@H](CCCNC(=O)OC2/C=C/CCCCC2)C(=O)N[C@@H](CC(=O)O)C(=O)N[C@H](C)C(=O)N[C@@H](CC(=O)O)C(=O)NCC(=O)N[C@H](CO)C(=O)N[C@@H]([C@H](C)CC(=O)O)C(=O)N[C@@H](CC(=O)c2ccccc2N)C(=O)O[C@@H]1C (stereo partly drawn),,"MRSA biofilm, porous glass beads","24 h, 37 °C, UG gel",,MBEC,> 256 µg/mL
Cc1ccc2ccc3ccc(C)nc3c2n1.Cc1ccc2ccc3ccc(C)nc3c2n1.O.[Cl-].[Cl-].[Cl-].[Yb+3],,methicillin-resistant,5 mg/mL,,zone of inhibition,34 mm
c1ccc(CN2CCOCCOCCN(CCCCCCCCCCCCCCN3CCOCCOCCN(CCCCCCCCCCCCCCN4CCOCCOCCN(Cc5ccccc5)CCOCCOCC4)CCOCCOCC3)CCOCCOCC2)cc1,ethidium bromide activity,1199B,"half MIC, with: ethidium bromide",reference: ethidium bromide alone,fold enhancement,32 fold
CC(=NNC(=N)N)c1nnn(-c2ccc(C#CC3(O)CCCCC3)cc2)c1C,,"WI-38, MRSA NRS384 USA300",,reference: WI-38 IC50 over MIC,selectivity index,17.5
CC[C@H](C)[C@H](NC(=O)[C@H](CCCCN)NC(=O)[C@H](CCCCN)NC(=O)[C@H](Cc1c[nH]c2ccccc12)NC(=O)[C@H](CC(N)=O)NC(=O)[C@@H](NC(=O)COCCOCCOCCOCCOCCOCCOC(=O)NCCCCCCNC(=O)NCCCCCCNC(=O)Nc1nc(=O)cc(C)[nH]1)C(C)C)C(=O)N[C@@H](CC(C)C)C(=O)NCC(=O)N[C@@H](CCCCN)C(=O)N[C@H](C(=O)N[C@H](C(=O)N[C@@H](CCCCN)C(=O)N[C@H](C(=O)N[C@H](C(=O)N[C@@H](CCCCN)C(N)=O)C(C)C)C(C)C)[C@@H](C)CC)[C@@H](C)CC,,"MSSA RN 4220, RPMI medium","24 h, 37 °C",,LC99.9,7.5 µM

# Excerpt of the above:
SMILES,test,test system,conditions,scale,measurement,value
c1ccc(CN2CCOCCOCCN(CCCCCCCCCCCCCCN3CCOCCOCCN(CCCCCCCCCCCCCCN4CCOCCOCCN(Cc5ccccc5)CCOCCOCC4)CCOCCOCC3)CCOCCOCC2)cc1,ethidium bromide activity,1199B,"half MIC, with: ethidium bromide",reference: ethidium bromide alone,fold enhancement,32 fold
